Measured values from different studies.
Parts stem from different laboratories: compare values within a part only. Positions count from the first letter of the parent shown.

Series 1 — technique: RNA Bind-n-Seq; form: RNA; matrix: in vitro; concentration: 365 nM; reference: no-protein control; reading: higher = stronger binding
Target: RNA binding protein fox-1 homolog 2, RRM domain, GST-SBP tag (RBFOX2, Homo sapiens, UniProt O43251-10, residues 100-194)
Notes: natural RNA segment, single round, ends assumed
Shared flanks, not repeated: GGGAGUUCUACAGUCCGACGAUC … UGGAAUUCUCGGGUGCCAA
Target sequence (chain): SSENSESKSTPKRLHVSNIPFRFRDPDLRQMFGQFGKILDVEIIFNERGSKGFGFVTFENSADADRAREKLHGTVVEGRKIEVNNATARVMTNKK
Strand | RBNS enrichment (R)
AGGUAGUUUUCUAUAGUAACUUGAUUAAUUUAGUCUUAAUCCAUUUGAAACUCUCUCUUCCUUUCUCUCUGCCUGUCCCUCUCCUUCUCCAUCUCACCCUCCCUCUCUCA | 0.813
CCUCUCCCAUCUGCCAGUCUCUCUGUGCCCUCGUGUCUGAGUGCUGUUUGCCCACCUUUUCCAGGUGUAAGAGGCAGAGAGCCUGGACAGCUUUCUCUCUCAGCCAUUGU | 0.5
UCAAAGACUUUUGUAGCAUACAAAGUGAAAACUUGUAUCUGCGAAACUAUACUUGUAUUAAAUGUGCUUUUUAAAUAAAAGCUCGUAACACAACUAAUUAAGGACUUGCA | 1.12
AAAUCCCCAUAAAUAUCCAUCCCUUCCUAGAUGGCAUUAACUUUCAUUUUAGAUUUUAGGUGACUCAUAAUUCCCAUUCACUUAGCCUAUCAGAAAAGUCAUUGGCAGAC | 0.536
AGUAGGAUAUUUCUUUAGAUUGCCACUUUUUUUAUUCCAGUUGUUUUAGGAAUAAAUGUCAGAUUUUAAAAGUCUUCUAUUUCCCAAUGAUCUCUGAAGUUUAGUAUUUU | 0.784
AAACUAUCAACAGGUGUACAAGAGUCAUGUUCAUUUAGAAUAGAGCAGUGUAAAUGCUAGGCCUCAGAAAUCUGAAAAAAGAUAGCAAAGAAAGUGGGUUUGGAACGUAU | 0.721
UAGGCUGGGCCUCCCCUGGGCAGGGUUCUCCAAGGGCCCGGUUUCCCGGCCCUUACCUUUCCUGAUGCCCCUGACAUCAUCAUUCUUGUGGGAGACAGCAGCCUGUAUGU | 0.353
CAUUGUUGGAGAGGGUGGGGGAAAGGUUCAAACAUUGUCAAUUUUUCUGACUUUUUAAAUCAUCAUCAUUAUUUUUAAUUAAAAAAAAAUGCCUGUAUGCCUUUUUCUGG | 0.535

Series 2 — target: CCNB1, cyclin fold, Cln2 fusion (human); technique: yeast growth competition, sequencing; matrix: yeast; notes: strong parent motif; reference: not given; reading: higher = stronger binding; parent: viral docking peptide; KGVKRKLFAEDSS
Substitution | normalised enrichment score
S12H | 2.33
F8V | 1.33
E10C | 0.823
L7S | 0.109

Series 3 — observed: peptide-MHC binding; form: peptide; concentration: concentration not given
Target: HLA class I histocompatibility antigen, A alpha chain, allele A*25:01 (Homo sapiens, UniProt P04439)
Sequence | binding
SWHHTSDDF | inactive
KSLTTTMQFK | inactive
VLWKSYPLV | inactive

Series 4 — target: UBE2W UBC core domain (UniProt Q96B02); technique: yeast two-hybrid; matrix: yeast; notes: mostly zero background; reference: not given; reading: higher = stronger interaction
Chain of UniProt Q96B02 (whole entry, looked up): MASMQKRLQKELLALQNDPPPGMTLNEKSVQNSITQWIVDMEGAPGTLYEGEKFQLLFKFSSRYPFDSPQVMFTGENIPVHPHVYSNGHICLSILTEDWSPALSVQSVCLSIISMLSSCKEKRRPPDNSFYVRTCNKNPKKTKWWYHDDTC
B1: RNF32 RING domain (UniProt Q9H0A6); chain VQALRRETHECSICLAPLSAAGGQRVGAGRRSREMALLSCSHVFHHACLLALEEFSVGDRPPFHACPLCRSCYQKKILEC
B2: ARIH1 RING domain (UniProt Q9Y4X5); chain NTRSSAQDMPCQICYLNYPNSYFTGLECGHKFCMQCWSEYLTTKIMEEGMGQTISCPAHGCDILVDDNTVM
B3: UBE4B RING domain (UniProt O95155); chain KNARAEIDYSDAPDEFRDPLMDTLMTDPVRLPSGTIMDRSIILRHLLNSPTDPFNRQTLTESMLEPVPELKEQIQAWMREKQNSDH
B4: MARCHF2 RING domain (UniProt Q9P0N8); chain RLLSTVIRALDTPSDGPFCRICHEGANGECLLSPCGCTGTLGAVHKSCLEKWLSSSNTSYCELCHTEFAVEKRPRPLTEWL
B5: RMND5B RING domain (UniProt Q96G75); chain MKCWYHSVFACPILRQQTSDSNPPIKLICGHVISRDALNKLINGGKLKCPYCPMEQNPADGK
B6: TRIM32 RING domain (UniProt Q13049); chain NLDALREVLECPICMESFTEEQLRPKLLHCGHTICRQCLEKLLASSINGVRCPFCSKITRITSLTQ
B7: MDM2 RING domain (UniProt Q00987); chain TQDKEESVESSLPLNAIEPCVICQGRPKNGCIVHGKTGHLMACFTCAKKLKKRNKPCPVCRQPIQMIVLTYFP
B8: TRIM28 RING domain (UniProt Q13263); chain GAEALELLEHCGVCRERLRPEREPRLLPCLHSACSACLGPAAPAAANSSGDGGAAGDGTVVDCPVCKQQCFSKDIVE
B9: PJA2 RING domain (UniProt O43164); chain DHTAIGQEQCCPICCSEYIKDDIATELPCHHFFHKPCVSIWLQKSGTCPVCRRHFPPAVIEA
B10: RNF10 RING domain (UniProt Q8N5U6); chain VRICSHEVPSCPICLYPPTAAKITRCGHIFCWACILHYLSLSEKTWSKCPICYSSVHKKDLKS
B11: TRIM47 RING domain (UniProt Q96LD4); chain MDGSGPFSCPICLEPLREPVTLPCGHNFCLACLGALWPHRGASGAGGPGGAARCPLCQEPFPDGLQLR
B12: CBLL1 RING domain (UniProt Q75N03); chain GEKDDTPVHFCDKCGLPIKIYGRMIPCKHVFCYDCAILHEKKGDKMCPGCSDPVQRIEQCT
Sequence | lacZ reporter activity
B1 (RNF32 RING domain) | 0
B2 (ARIH1 RING domain) | 0
B3 (UBE4B RING domain) | 0
GSEEEEIPFRCFICRQAFQNPVVTKCRHYFCESCALEHFRATPRCYICDQPTGGIFNPA (RNF113B RING domain (UniProt Q8IZP6)) | 0
B4 (MARCHF2 RING domain) | 0
VPADASPDSKCPICLDRFDNVSYLDRCLHKFCFRCVQEWSKNKAECPLCKQPFDSIFHSV (TOPORS RING domain (UniProt Q9NS56)) | 16300
B5 (RMND5B RING domain) | 6670
PLRRLQEEKLCKICMDRHIAVVFIPCGHLVTCKQCAEAVDRCPMCSAVIDFKQRVF (BIRC8 RING domain (UniProt Q96P09)) | 0
B6 (TRIM32 RING domain) | 0
B7 (MDM2 RING domain) | 0
AAQLLEEKLTCAICLGLYQDPVTLPCGHNFCGACIRDWWDRCGKACPECREPFPDGAELR (TRIM65 RING domain (UniProt Q6PJ69)) | 0
B8 (TRIM28 RING domain) | 0
B9 (PJA2 RING domain) | 5710
B10 (RNF10 RING domain) | 0
B11 (TRIM47 RING domain) | 0
B12 (CBLL1 RING domain) | 0

Mixed results — technique: cross-linking MS; matrix: cell fractions
Substance | partner | with | cross-linked residues
NUP155 (Homo sapiens, UniProt O75694) | NUP58 (Homo sapiens, UniProt Q9BVL2) | DMTMM | P2 to E354
SNRNP70 (Homo sapiens, UniProt P08621) | SRSF1 (Homo sapiens, UniProt Q07955) | DSSO | K162 to K179
JUP (Homo sapiens, UniProt P14923) | DSP (Homo sapiens, UniProt P15924) | DMTMM | E154 to K444
GLDC (Homo sapiens, UniProt P23378) | ZC3H3 (Homo sapiens, UniProt Q8IXZ2) | DSSO | K636 to S232

Some of these lines once more (series 2):
Substitution | normalised enrichment score
S12H | 2.33
F8V | 1.33
E10C | 0.823
L7S | 0.109
